# Measurements pooled from the literature.
# Parts stem from different laboratories: compare values within a part only.

# Block 1 — method: protein-binding microarray; molecule type: double-stranded DNA, one strand shown; medium: in vitro; concentration: 940 nM top; notes: 60-bp whole probe; added: salmon DNA 0.4 mg/ml; reference: random background probes; reading: higher = stronger binding; shared flanks, not repeated: GCCTAGCAC … GTCTTGATTCGCTTGACGCTGCTG
# Target: Interferon regulatory factor 5, full length, phosphomimetic (IRF5, Homo sapiens, UniProt Q13568-2, residues 1-514, S451D/S453D/S456D/S462D)
Sequence,fitted relative affinity [z-score]
TCATATATATATTATATAACTGTGCTA,0.249
TTAGGTAACCTACTGCTTTAGTGCTAG,-0.42
CTAGATATCGGGTATCGATTAGTGCTA,3.01
AAGCTTCTTTTTTATTCTAAAGTGCTA,1.21
TCGTTTCCCAAGTTTATACCTGTGCTA,1.19
TCAGTCTTCCCTTTTAAACTGTGCTAG,0.875

# Block 2 — method: protein-binding microarray; molecule type: double-stranded DNA, one strand shown; medium: in vitro; concentration: not given; reading: higher = stronger binding
# Target: Protein C-ets-1 (ETS1, Homo sapiens, UniProt P14921, residues 1-441, full length assumed)
# UniProt P14921, sequence (whole entry, looked up): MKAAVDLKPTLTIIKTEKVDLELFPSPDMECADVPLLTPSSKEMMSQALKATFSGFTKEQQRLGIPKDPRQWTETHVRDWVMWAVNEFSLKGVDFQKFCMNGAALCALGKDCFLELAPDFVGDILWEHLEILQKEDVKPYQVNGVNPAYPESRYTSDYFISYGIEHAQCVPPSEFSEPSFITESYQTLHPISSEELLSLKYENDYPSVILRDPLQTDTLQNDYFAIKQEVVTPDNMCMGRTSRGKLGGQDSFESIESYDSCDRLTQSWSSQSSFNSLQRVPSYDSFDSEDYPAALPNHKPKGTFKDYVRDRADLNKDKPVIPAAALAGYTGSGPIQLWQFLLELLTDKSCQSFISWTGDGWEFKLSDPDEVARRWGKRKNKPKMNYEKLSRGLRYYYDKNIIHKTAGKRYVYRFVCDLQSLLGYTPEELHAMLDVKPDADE
# Notes: k-mer, scored over probes, only values ≥0.25
Sequence,E-score
AAGGCGGA,0.297
ACCGGATG,0.497
GGATGGAA,0.349
AATCCGGA,0.42
TGCCGGAA,0.467
CCGGAAGG,0.483
ACCGGTAC,0.321
GCATCCTA,0.346

# Block 3 — method: protein binding microarray; molecule type: double-stranded DNA, one strand shown; medium: in vitro; concentration: not given; reference: not given; reading: higher = stronger binding
# Target: Histone acetyltransferase KAT6A, both winged helices, GST fusion (KAT6A, Homo sapiens, UniProt Q92794, residues 1-181)
# Notes: 8-mer, flanks averaged, mean of 2 arrays, mostly near background
# Construct (chain): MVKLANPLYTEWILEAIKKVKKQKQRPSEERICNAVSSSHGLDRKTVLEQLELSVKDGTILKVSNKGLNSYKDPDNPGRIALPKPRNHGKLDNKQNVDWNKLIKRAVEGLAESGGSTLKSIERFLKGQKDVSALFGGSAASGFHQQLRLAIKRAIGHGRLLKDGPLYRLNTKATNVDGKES
Sequence,E-score
GAGCGGAA,0.217
AAATCTCT,-0.044
GCACATAC,0.0646
CGTTGCCC,0.155
ATAATAAA,0.0885
GCCCGATA,0.0479
ATGAATGC,0.0649

# Single results of other studies
Molecule,target,test,test system,conditions,how to read,endpoint,value
"PhoQ, residues 284 288 289 292 302 303 GANMMA","PhoP, residues 12 14 15 18 19 VQALL (Escherichia coli, UniProt P23836)","Sort-seq, measured: YFP reporter",E. coli,"PhoQ-PhoP variant library, added: 10 µM Mg2+","reference: high Mg2+ state, higher = stronger signaling",fold induction,6.4

# A few entries again (block 3):
Sequence,E-score
AAATCTCT,-0.044
GCACATAC,0.0646
GAGCGGAA,0.217
